Published values gathered from unrelated publications.
Every numbered part comes from another study and shows a few of its results, in no order. Substitutions count along the parent as printed.

Sample 1 — target: CCNB1, cyclin fold, Cln2 fusion (human); technique: yeast growth competition, sequencing; matrix: yeast; notes: weak parent motif; relative to: not given; reading: higher = stronger binding
Starting sequence: RB1 docking peptide (human); PKPLKKLRFDIEG
| Variant | normalised enrichment score |
| --- | --- |
| PKPLKKLRFTIEG [D10T] | -0.284 |
| PKPLKKLRFDIDG [E12D] | 0.19 |
| PKPLKKLRFDNEG [I11N] | 0.973 |
| PKPLKMLRFDIEG [K6M] | 0.43 |
| PKPQKKLRFDIEG [L4Q] | 0.00297 |
| PKPLKKNRFDIEG [L7N] | 0.849 |
| PKPLKKLRSDIEG [F9S] | 0.317 |

Sample 2 — technique: universal PBM; molecule type: double-stranded DNA, one strand shown; matrix: in vitro; tested at: not given; reading: higher = stronger binding
Target: Sal-like protein 4, full length isoform B (SALL4, Homo sapiens, UniProt Q9UJQ4-2, residues 1-616)
Notes: 8-mer, flanks averaged, mean of replicates
Residues (chain): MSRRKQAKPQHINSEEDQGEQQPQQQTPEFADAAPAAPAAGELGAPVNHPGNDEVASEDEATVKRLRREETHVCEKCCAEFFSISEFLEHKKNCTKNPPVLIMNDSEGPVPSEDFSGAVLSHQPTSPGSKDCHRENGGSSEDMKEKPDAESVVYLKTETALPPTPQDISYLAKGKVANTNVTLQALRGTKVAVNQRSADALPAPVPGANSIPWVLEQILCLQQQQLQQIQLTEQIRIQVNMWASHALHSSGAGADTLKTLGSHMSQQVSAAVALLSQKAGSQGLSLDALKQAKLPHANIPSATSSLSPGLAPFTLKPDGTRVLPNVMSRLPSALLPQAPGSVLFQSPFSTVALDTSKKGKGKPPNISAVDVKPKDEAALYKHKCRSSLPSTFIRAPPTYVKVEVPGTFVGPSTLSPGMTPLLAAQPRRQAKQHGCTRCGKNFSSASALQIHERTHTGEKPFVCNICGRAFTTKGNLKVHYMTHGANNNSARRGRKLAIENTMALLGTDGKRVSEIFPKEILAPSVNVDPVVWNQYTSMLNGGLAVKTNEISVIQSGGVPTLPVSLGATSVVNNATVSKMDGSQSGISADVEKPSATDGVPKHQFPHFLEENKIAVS
| Oligonucleotide | E-score |
| --- | --- |
| CAATTCCC | 0.012 |
| GATCGATA | 0.231 |
| ATACCAAC | 0.24 |
| ATAACGAG | 0.191 |
| GGAGTGTA | -0.137 |
| CCGAGACG | -0.204 |
| AATGGCGG | -0.23 |
| CGGCACTC | -0.234 |
| AGGCCCAC | -0.342 |
| CACGTGTA | 0.00821 |
| AACGCAGA | -0.0985 |
| GGCTCTAA | -0.0466 |
| GCTACGAC | -0.13 |
| AAGAAAAA | 0.301 |
| AATTGCTG | 0.123 |
| CCTCTTAC | -0.216 |
| AACGCAGC | -0.155 |
| GGATTAAC | -0.0435 |

Sample 3 — technique: protein binding microarray; molecule type: double-stranded DNA, one strand shown; matrix: in vitro; tested at: not given; relative to: not given; reading: higher = stronger binding
Target: Histone acetyltransferase KAT6A, winged helix 1, GST fusion (KAT6A, Homo sapiens, UniProt Q92794, residues 1-85)
Notes: 8-mer, flanks averaged, mean of 2 arrays, mostly near background
Construct (chain): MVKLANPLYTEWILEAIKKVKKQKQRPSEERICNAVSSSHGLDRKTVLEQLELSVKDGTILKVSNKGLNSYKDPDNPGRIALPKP
| Oligonucleotide | E-score |
| --- | --- |
| AATTTGGT | -0.231 |
| AGTTAATA | -0.0606 |
| GTCGCCAA | -0.0232 |
| GCATTTAA | -0.118 |
| CGAGGCAA | 0.00705 |
| CGCGGTTA | 0.311 |
| CTACCCCC | -0.152 |
| TATCAATA | -0.135 |
| TTAGCAAA | -0.101 |
| ACATCCTG | -0.146 |
| ACCCGACC | 0.168 |
| ACAGCTCT | -0.232 |
| TTACCCAA | -0.227 |
| AGGCCGTA | 0.322 |
| GCCGTACC | 0.418 |
| AACTTTCA | -0.154 |

Single results of other studies
| Substance | target | assay | test system | conditions | scale | measurement | value |
| --- | --- | --- | --- | --- | --- | --- | --- |
| PhoQ, residues 284 288 289 292 302 303 GLASVI | PhoP, residues 12 14 15 18 19 AQALL (Escherichia coli, UniProt P23836) | Sort-seq, refers to: YFP reporter | E. coli | PhoQ-PhoP variant library, with: 10 µM Mg2+ | relative to: high Mg2+ state, higher = stronger signaling | fold induction | 17.1 |

For quick reference, copied from above (sample 2):
| Oligonucleotide | E-score |
| --- | --- |
| GATCGATA | 0.231 |
| ATACCAAC | 0.24 |
| ATAACGAG | 0.191 |
| GGAGTGTA | -0.137 |
| CCGAGACG | -0.204 |
| AATGGCGG | -0.23 |
